Results collected from several papers.
Lines come from different studies, so protocols differ. Numbers after ± are the reported error.
Organism: SARS-CoV-2

`COCCn1c2c([n+](Cc3cnccn3)c1C)C(=O)c1ccccc1C2=O` gave an EC50 of > 20 µM (virus-induced cytopathic effect; Vero E6, USA-WA1/2020; 72 h).
The EC50 of `CC(=O)N[C@@H](CC(C)C)C(=O)N[C@@H](CC(C)C)C(=O)N[C@H](C=O)CCCNC(=N)N` is reported as 10.6 µM (viral replication; Huh-7; 48 h).
The EC50 of `Fc1ccc([C@@H]2CCNC[C@H]2COc2ccc3c(c2)OCO3)cc1` is reported as 15.1 µM (viral replication, GFP plate reader screen; cell-based).
For `COc1ccc(F)c2[nH]c(C(=O)N[C@@H](CC(C)C)C(=O)N[C@@H](C[C@@H]3CCNC3=O)C(=O)c3nc4c(F)cccc4s3)cc12`, the EC50 was 0.29 ± 0.056 µM (viral replication, RT-qPCR; VeroE6, WK-521).
The EC50 of `[N-]=[N+]=N[C@]1(CO)O[C@@H](n2ccc(N)nc2=O)[C@@H](F)[C@@H]1O` is reported as 1.8 to 6.4 µM (viral replication; DBT-9-hACE2, USA-WA1/2020 nLuc reporter).
`COc1cc([C@H]2OC[C@]3(O)[C@@H](c4ccc(O)c(OC)c4)OC[C@H]23)ccc1O` gave an EC50 of 24.3 µM (viral replication; mNeonGreen reporter).
For `Cn1cnc(Cn2c(=O)[nH]/c(=N\c3cc4cn(C)nc4cc3Cl)n(Cc3cc(F)c(F)cc3F)c2=O)n1`, the EC50 was 0.07 µM (viral replication; Vero C1008, XBB.1).
`CN(C)c1ccc(N(Cc2cc(Cl)cs2)C(=O)Cc2cncc3ccccc23)cc1` gave an EC50 of 0.2 ± 0.1 µM (nucleocapsid staining; Caco-2, Omicron BQ.1.1).
The EC50 of `O=C[C@H](C[C@@H]1CCNC1=O)NC(=O)[C@H](CC1CCCCC1)N1C[C@@H](NC(=O)OCc2ccccc2)CCC1=O` is reported as 18.9 µM (viral replication; Vero C1008, USA-WA1/2020).
For `CCC(CC)COC(=O)[C@H](C)N[P@](=O)(OC[C@H]1O[C@@](C#N)(c2ccc3c(N)ncnn23)[C@H](O)[C@@H]1O)Oc1ccccc1`, the EC50 was 7.2 µM (viral replication).
The EC50 of `CC[C@H](C)[C@@H](C(=O)O[C@@H](CC(C)C)C(=O)N[C@@H](CC(C)C)C(=O)N[C@@H](C)/C=C/C(=O)N1C(=O)C=C(OC)[C@@H]1C)N(C)C` is reported as 6.61 µM (viral replication; HEK293 ACE2/TMPRSS2; fixed 7:1 molar combination).
For `CC(C)[C@H](NC(=O)c1ccccc1NC(=O)c1ccccc1)C(=O)N[C@H](CO)C(C)C`, the EC50 was 1.3 ± 0.5 µM (plaque formation, plaque reduction; Vero E6; 72 h).
For `Cc1ccc(OCCN)cc1C(=O)N[C@H](C)c1cccc(-c2ccoc2)c1`, the EC50 was ≤ 6 µM (viral replication; Caco-2; 24 h).
With `COc1cc2c(Oc3ccc4[nH]c(C)cc4c3F)ccnc2cc1OCC1(N)CC1` the EC50 was > 100 µM (viral replication, GFP plate reader screen; cell-based).
`CC(C)(C)[C@H](NC(=O)C(F)(F)F)C(=O)N1C[C@H]2[C@@H]([C@H]1C(=O)N[C@H](C#N)C[C@@H]1CCNC1=O)C2(C)C` gave an EC50 of 0.04 µM (viral replication; Caco-2, icSARS-CoV-2-nLuc reporter).
The EC50 of `C[C@@H]1CN(c2ncc(C(O)CO)cc2Cl)CCN1c1nc2c(-c3cc(F)c(F)c(F)c3)cc(C(F)(F)F)cc2[nH]1` (stereo partly drawn) is reported as 1.4 µM (viral replication; Huh-7-ACE2, USA-WA1/2020; 24 h).
With `CC(C)(C)[C@H](NC(=O)C(F)(F)F)C(=O)N1C[C@H]2[C@@H]([C@H]1C(=O)N[C@H](C#N)C[C@@H]1CCNC1=O)C2(C)C` the EC50 was 0.0065 µM (viral replication; Vero C1008, WT replicon ΔS-E-M; 24 h).
`CC(C)=CC[C@@H](O)C1=CC(=O)c2c(O)ccc(O)c2C1=O` gave an EC50 of > 100 µM (viral replication; Vero E6; 96 h).
`CCNC/C=C\CNCCCCNCCCCNC/C=C\CNCC` has an EC50 of ~0.5 µM (viral replication; 293T-ACE2, USA-WA1/2020; 24 h).
The EC50 of `COc1ccccc1OCCNCC(O)COc1cccc2[nH]c3ccccc3c12` (stereo not drawn) is reported as 15.5 µM (viral replication, GFP plate reader screen; cell-based).
With `N#C[C@@]1(n2ccc(N)nc2=O)O[C@H](CO)[C@@H](O)[C@H]1O` the EC50 was 2.1 ± 0.3 µM (viral replication, qRT-PCR of viral RNA; Vero, Washington).
For `CC(C)(C)c1ccc(N(Cc2cc(Cl)cs2)C(=O)Cc2cncc3ccccc23)cc1`, the EC50 was 2.5 µM (viral replication; Calu-3, Omicron BA.2).
The EC50 of `Cc1c(-c2ccc(-c3ccccc3F)cc2)nc2ccc(F)cc2c1C(=O)O` is reported as 0.8 ± 0.1 µM (viral replication; Calu-3; 48 h).
The EC50 of `CN(C)c1ccc(N(Cc2cc(Cl)cs2)C(=O)Cc2cncc3cccc(O)c23)cc1` is reported as 0.05 ± 0.03 µM (nucleocapsid staining; Caco-2, Omicron XBB.1.5).
`NC(=O)c1c(NC(=O)c2cnn3c(C(F)(F)F)cc(-c4ccccc4)nc23)sc2c1CCCC2` has an EC50 of 8.1 ± 3.4 µM (plaque formation, plaque reduction; Vero E6; 72 h).
With `C1=C(c2ccc(CN3CCCCC3)cc2)N2CCN=C2c2ccccc21` the EC50 was 0.12 µM (viral replication; 293T-ACE2, USA-WA1/2020; 24 h).
`CC(C)(C)[C@H](NC(=O)C(F)(F)F)C(=O)N1C[C@@H]2CCC[C@@H]2[C@H]1C(=O)N[C@@H](C[C@@H]1CCNC1=O)C(=O)c1nc2c(F)ccc(F)c2s1` gave an EC50 of 0.27 µM (viral replication; Vero C1008, JPN/TY/WK-521 (ancestral Wuhan)).
`Cc1cccc(C)c1OCC(=O)N[C@@H](Cc1ccccc1)[C@@H](O)C[C@H](Cc1ccccc1)NC(=O)[C@H](C(C)C)N1CCCNC1=O` gave an EC50 of 22.9 µM (viral replication, GFP plate reader screen; cell-based).
With `CC(=O)c1cccc(NC(=O)c2cc3c(=O)n4ccccc4nc3n2C)c1` the EC50 was 0.107 ± 0.00115 µM (viral replication, qPCR; Vero E6).
The EC50 of `NC(=O)C1(N2CCCCC2)CCN(CCCN2c3ccccc3CCc3ccccc32)CC1` is reported as 8.91 µM (viral replication, GFP plate reader screen; cell-based).
For `Nc1ncnc2c1ncn2[C@@H]1O[C@H](CSCc2ccc3ccccc3c2)[C@@H](O)[C@H]1O`, the EC50 was > 200 µM (viral replication, N protein immunofluorescence; Calu-3; 24 h).
For `COc1ccc(N(Cc2cc(Cl)cs2)C(=O)Cc2cncc3ccccc23)cc1`, the EC50 was 3.2 µM (viral replication; Calu-3, Omicron BA.2).
For `CC(C)[C@H](NC(=O)c1ccccc1NC(=O)c1ccc(O)cc1)C(=O)N[C@H](CO)C(C)C`, the EC50 was 25.8 ± 5.7 µM (plaque formation, plaque reduction; Vero E6; 72 h).
The EC50 of `CO[C@@H]1[C@@H](OC)[C@H](C)[C@@](O)(CC(=O)O)O[C@H]1[C@H](C)[C@H]1O[C@@]2(CC[C@@](C)([C@H]3CC[C@@](C)([C@@H]4O[C@@H]([C@H]5O[C@](C)(O)[C@H](C)C[C@@H]5C)C[C@@H]4O[C@@H]4C[C@H](OC)[C@@H](OC)[C@H](C)O4)O3)O2)C[C@H](O)[C@H]1C` is reported as 0.064 µM (cytopathic effect; Vero E6-hTMPRSS2).
With `O=C(O[C@@H]1O[C@@H]2COC(=O)c3cc(O)c(O)c(O)c3-c3c(cc(O)c(O)c3O)C(=O)O[C@H]([C@H]1O)[C@@H]2O)c1cc(O)c(O)c(O)c1` the EC50 was 0.08 mg/L (viral infection; Vero).
`O=c1nc[nH]c2c1ncn2[C@H]1CC[C@@H](CO)O1` gave an EC50 of 3.47 ± 0.15 µM (viral RNA copies; Vero C1008, VOC-202012/01; 48 h, 50% decrease endpoint).
The EC50 of `CCC(CC)COC(=O)[C@H](C)N[P@](=O)(OC[C@H]1O[C@@](C#N)(c2ccc3c(N)ncnn23)[C@H](O)[C@@H]1O)Oc1ccccc1` is reported as 0.06 µM (viral replication; A549-ACE2-TMPRSS2, WA1; 24 h).
With `CCC(CC)COC(=O)[C@H](C)N[P@](=O)(OC[C@H]1O[C@@](C#N)(c2ccc3c(N)ncnn23)[C@H](O)[C@@H]1O)Oc1ccccc1` the EC50 was 1.8 ± 0.1 µM (viral replication, qRT-PCR of viral RNA; Vero, Washington).
With `Nc1ncnc2c1ncn2[C@@H]1C(F)=C(CO)[C@@H](O)[C@H]1O` the EC50 was > 23.1 µM (viral replication, spike protein immunostaining; Vero; 48 h).
`COc1ccc(C(=O)Nc2ccccc2C(=O)N[C@H](C(=O)N[C@H](CO)C(C)C)C(C)C)cc1` gave an EC50 of 30 ± 6.9 µM (plaque formation, plaque reduction; Vero E6; 72 h).
The EC50 of `Cc1cc(NC(=O)c2cc3c(=O)n4cccc(C)c4nc3n2C)ccc1Br` is reported as 0.108 ± 0.00304 µM (viral replication, qPCR; Vero E6).
For `COc1ccc2c(c1)N(CCCN(C)C)c1ccccc1S2`, the EC50 was > 100 µM (viral replication, high-content imaging screen; cell-based).
`Cn1c(C(=O)Nc2ccc(Cl)cc2)cc2c(=O)n3ccccc3nc21` has an EC50 of 0.109 µM (viral replication; Vero E6).
`C[C@@H]1CS/C(=N\NC(=O)C(=O)[C@H](NC(=O)C2CCCCCC2)C2CCOCC2)N1C` gave an EC50 of 0.078 µM (viral replication; Huh-7-ACE2, USA-WA1/2020; 24 h).
`Cc1cc(O[C@@H](CCC(F)(F)F)c2ccc(C(=O)NCCC(=O)O)cc2)cc(C)c1-c1ccc(C(C)(C)C)cc1` has an EC50 of > 10 µM (viral replication, GFP plate reader screen; cell-based).
For `COc1cccc2c(N3CCc4ccccc4C3C)nc(Nc3ccc(F)cc3C)nc12` (stereo not drawn), the EC50 was 1.1 µM (viral replication; 293T-ACE2, USA-WA1/2020; 24 h).
`Cn1cnc(Cn2c(=O)[nH]/c(=N\c3cc4cn(C)nc4cc3Cl)n(Cc3cc(F)c(F)cc3F)c2=O)n1` has an EC50 of 0.1 µM (viral replication; USA-WA1/2020; 24 h).
`CCN1CCN(C(C(=O)O)c2c[nH]c3ccc(NC(=O)CCC(=O)O)cc23)CC1` (stereo not drawn) gave an EC50 of > 50 µM (plaque formation, plaque reduction; Vero E6; 72 h).
The EC50 of `COc1ccc(Cn2[se]c3ccccc3c2=O)c(OC)c1` is reported as > 20 µM (viral replication, WST-8; Vero E6, USA-WA1/2020; 72 h).
`CC(C)(C)c1ccc(C(O)CCCN2CCC(C(O)(c3ccccc3)c3ccccc3)CC2)cc1` (stereo not drawn) has an EC50 of > 100 µM (viral replication, high-content imaging screen; cell-based).
With `O=C(CCC(=O)NNC(=O)C(c1ccccc1)c1ccccc1)NCc1ccccc1` the EC50 was > 50 µM (plaque formation, plaque reduction; Vero E6; 72 h).
